Measurements collected from several papers.
Several values in a cell are separate wells, animals, samples, runs or records. ± marks the error that the study gave.

Compound	cell line	assay	conditions	IC50
Cc1ccc(CC(=O)N(CCCn2ccnc2)c2nc3ccccc3s2)c(C)c1	SW620 organoids	vimentin reporter GFP		> 40 µM
COC(=O)CCC(=O)[O][Pt-2]1([OH])([Cl])([Cl])[NH2+]CC[N+]1(C)C	CH1	cell growth or viability, MTT	96 h	3.1 µM
CC(C)N(C[C@H]1O[C@@H](n2cnc3c(N)ncnc32)[C@H](O)[C@@H]1O)C1CC2CN(Cc3cc(F)cc(Br)c3)CC2C1 (stereo partly drawn)	H460 R231Q	cell proliferation, CCK-8	72 h	> 100 µM
CCC(=O)N1CCN(c2ccc(NC(=O)c3ccc([N+](=O)[O-])o3)cc2Cl)CC1	LDR	cell viability, MTS	4 days	1.4 µM
N[C@@H](CCC(=O)N[C@@H](CS[Se]Cc1ccc(-c2cc(C(F)(F)F)nn2-c2ccc(S(N)(=O)=O)cc2)cc1)C(=O)NCC(=O)O)C(=O)O	1205 Lu melanoma cells	cell viability, MTS	48 h	17.2 ± 1.6 µM
CCCCC(CC)CNC(=N)NC(=N)NCCC (stereo not drawn)	NCI-H1299	cell growth or viability, SRB	72 h	10.1 µM
N=C(N)NCCC[C@H](N)C(=O)N[C@H](CC(=O)N[C@@H](CC(=O)O)C(=O)O)c1cccc2ccccc12	BT-474 (HER2-overexpressing)			> 50 µM
C#CCOc1ccc(/C=N\NC(=O)c2ccncc2)cc1	normal dermal fibroblasts	cell viability, MTT	48 h	> 500 µM
CCC(C(=O)O)C1CCC(C)C(C(C)C(O)C(C)C(=O)C(CC)C2OC3(C=CC(NCc4cn(CSc5ccccc5)nn4)C4(CCC(C)(C5CCC(O)(CC)C(C)O5)O4)O3)C(C)CC2C)O1 (stereo not drawn)	HMLER CD24high/CD44low	cell viability, CellTiter-Blue	72 h	0.98 ± 0.3 µM
C(=N\Nc1nc(-c2ccccn2)nc2ccccc12)/c1ccccc1	HCC4017	cell growth or viability, MTS	96 h	1.35 µM
CCCCCCCC(=O)O[C@H]1[C@H](C)O[C@@H](O[C@H]2[C@H](N(C)C)[C@@H](O)[C@H](O[C@H]3[C@@H](CC=O)C[C@@H](C)[C@@H](O[C@H]4CC[C@H](N(C)C)[C@@H](C)O4)/C=C/C=C/C[C@@H](C)OC(=O)C[C@@H](O)[C@@H]3OC)O[C@@H]2C)C[C@@]1(C)O	HGC-27	cell growth or viability, CCK-8	72 h	3.96 µM
CC(=O)N[C@H]1C(n2cc([C@@](C)(O)c3cccc(F)c3)nn2)O[C@H](COCc2ccccc2)[C@H](OCc2ccccc2)[C@@H]1OCc1ccccc1 (stereo partly drawn)	SJSA-1	cell growth or viability, MTS	72 h	30 µM
CCCC(=O)N1CCN(c2ccc(NC(=O)c3ccc([N+](=O)[O-])o3)cc2Cl)CC1	LDR	cell viability, MTS	4 days	1 µM
C[C@]12CC/C(=N\OCCN3CCCCC3)C=C1CCC1C2CC[C@]2(C)/C(=C/c3ccccn3)CCC12 (stereo partly drawn)	G-361	cell growth or viability, resazurin	72 h	4.7 µM
CC(C)Cc1ccc(C(C)C(=O)[O][Pt]([NH2])([NH2])([Cl])([Cl])[O]C(=O)C(Cl)Cl)cc1 (stereo not drawn)	PSN1 3D spheroids			5.25 ± 0.71 µM
COc1cc(NC(=O)c2cccc(F)c2)ccc1C(=O)Nc1ccc(Cl)c(-c2nc3ccccc3[nH]2)c1	NIH3T3-Gli-Luc	Hedgehog signalling, Gli-luciferase reporter	with: Shh-conditioned medium	0.79 ± 0.14 µM
N=C(N/N=C/c1ncc[nH]1)N/N=C/c1ncc[nH]1	IMR-90	cell growth or viability, crystal violet	72 h	180 µM
CCCc1cc2cc(-n3nc(C)c4c3CC(C)(C)CC4=O)cc(N[C@H]3CCOC3)c2c(=O)[nH]1	ARPE-19	cell growth or viability, MTS	48 h	~0.458 µM and 0.458 µM

Excerpt of the above:
Compound	cell line	assay	conditions	IC50
N=C(N)NCCC[C@H](N)C(=O)N[C@H](CC(=O)N[C@@H](CC(=O)O)C(=O)O)c1cccc2ccccc12	BT-474 (HER2-overexpressing)			> 50 µM
